Assay results gathered from unrelated publications.
Lines come from different studies, so protocols differ. Several values in a cell are separate wells, animals, samples, runs or records.

Molecule | tested on | assay | system | conditions | how to read | measurement | result
NC(=O)C[S+]([O-])C(c1ccccc1)c1ccccc1 (stereo not shown) | – | – | C57BL/6J mouse | oral, 128 mg/kg, 5.5 h cumulative | relative to: vehicle-treated mice | locomotor activity | ~9 fold
COc1ccc(-c2cc([C@H]3[C@@H](c4ccc(Cl)cc4)C[C@@H]4CC[C@H]3N4C)on2)cc1 | – | nicotine-induced hypothermia, antagonist | mouse | added: nicotine 2.5 mg/kg sc | – | ED50 | > 20 mg/kg
C#CCN(C)[C@H](C)Cc1ccccc1 | – | immunostaining | APP/PS1 mice, GFAP-positive astrocytes, dentate gyrus | oral, 10 mg/kg, 3 days | – | GABA level | decreased
C[C@H]1CNCCc2ccc(Cl)cc21 | – | – | male Sprague-Dawley rat, plasma | subcutaneous, 0.5 mg/kg, single dose | – | Cmax | 0.0156 µg/mL
CNC(C)Cc1ccc2c(c1)OCO2 (racemic) | – | visual analog scale, item: Anxious | human | oral, 0.75 mg/kg, mean over session, unit not given | relative to: pre-dose baseline | mood rating | 11.5
c1ccc(C2(N3CCCCC3)CCCCC2)cc1 | – | nicotine-induced antinociception, antagonist, hot-plate test | ICR mouse, male | subcutaneous, 5 mg/kg, 15 min before nicotine | – | inhibition | 20%
C#Cc1ccc2c(c1)C(c1ccccn1)=NCc1c(-c3cnco3)ncn1-2 | – | – | ICR mouse, lactic acid-depressed nesting | dose not given, 60 min nesting period | relative to: vehicle | zones cleared | increased
CCCCCn1cc(C(=O)c2ccc(CC)c3ccccc23)c2ccccc21 | – | – | male ND4 Swiss-Webster mice | intraperitoneal, 1 to 10 mg/kg | – | duration of locomotor depression | 190 min
CN[C@@](C)(C[18F])C(=O)O | MDA-MB-468 tumour model | – | host not given, pancreas | 1 h, tumour-bearing | – | tracer uptake | 27 %ID/g
CCCC(C(=O)c1ccc2c(c1)OCO2)N1CCCC1 (stereo not shown) | – | locomotor activity increase | ICR mice | intraperitoneal, 60 min | relative to: saline | effective dose | 1 to 3 mg/kg
Cc1ccc([C@H]2C[C@@H]3CC[C@H]([C@H]2c2cc(-c4ccc(Cl)cc4)no2)N3C)cc1 | – | nicotine-induced hypothermia, antagonist | mouse | added: nicotine 2.5 mg/kg sc | – | ED50 | > 20 mg/kg
Polymyxin B | – | LAL test | human heparinized plasma | 60 min, 37 °C, added: Pseudomonas aeruginosa LPS 5 ng/mL | – | endotoxin neutralizing concentration | < 400 ng/mL and 219 ng/mL
Cc1cc([C@H]2C[C@@H]3CC[C@H]([C@H]2c2cc(-c4ccccc4)no2)N3C)ccc1Cl | – | nicotine-induced hypothermia, antagonist | mouse | added: nicotine 2.5 mg/kg sc | – | ED50 | > 20 mg/kg
[123I]c1cncc(OC[C@@H]2CCN2)c1 | – | SPECT | human, temporal lobe | intravenous bolus plus infusion, 7.6 mCi | relative to: plasma | tissue/plasma ratio | 20.1
Cc1ccc([C@H]2C[C@@H]3CC[C@H]([C@H]2C(=O)OC(C)C)N3C)cc1 | – | nicotine-induced antinociception, antagonist, hot-plate test | mouse | added: nicotine 2.5 mg/kg sc | – | ED50 | > 20 mg/kg
EDDP perchlorate | – | elevated plus maze | Sprague-Dawley rat | subcutaneous, 10 mg/kg, 30 min, 300 s test | – | time in open arms | 80 s

For quick reference, copied from above:
Molecule | tested on | assay | system | conditions | how to read | measurement | result
C#CCN(C)[C@H](C)Cc1ccccc1 | – | immunostaining | APP/PS1 mice, GFAP-positive astrocytes, dentate gyrus | oral, 10 mg/kg, 3 days | – | GABA level | decreased
